Published values pooled from the literature.
Protocols differ between the studies behind these lines. ± marks the error that the study gave.

COc1cc(N)c(Cl)cc1C(=O)NC1CCN(CCCOc2ccc(F)cc2)CC1OC (stereo not shown)  mean blood pressure (male Hartley guinea pigs, anaesthetized; intravenous, 0.1 mg/kg over 10 min, after infusion): 30 ± 0.3 mmHg
C=CCn1c(=O)c2cnc(Nc3ccc(N4CCN(C)CC4)cc3)nc2n1-c1cccc(C(C)(C)O)n1  AUC(0-10) (human; oral, 200 mg once daily, monotherapy lead-in, -5 days; geometric mean): 4.13 µM·h
CNCc1ccc(-c2[nH]c3cc(F)cc4c3c2CCNC4=O)cc1  constipation incidence (patients; oral, 480 mg twice daily, all grades): 22.2%
C[C@@H]1COCCN1c1cc(C2([S@](C)(=N)=O)CC2)nc(-c2cc[nH]c3nccc2-3)n1  Anemia incidence (Japanese advanced solid tumour patients; oral, 160 mg twice daily, any grade): 66.7%
CC[C@H](C)[C@H](NC(=O)CN)C(=O)N[C@@H](C)C(=O)N[C@@H](CC(=O)O)C(=O)N[C@@H](C)C(=O)N[C@H](C(=O)N[C@@H](CCCCN)C(=O)N[C@@H](CCCCN)C(=O)N[C@H](C(=O)N[C@@H](C)C(=O)N[C@@H](CCCCN)C(=O)N[C@@H](C)C(=O)N[C@@H](CC(C)C)C(=O)NCC(N)=O)[C@@H](C)CC)[C@@H](C)CC  mean residue ellipticity (circular dichroism at 222 nm; 10 mM SDS; 100 µM, pH 4.0): -17100 deg cm2/dmol
CCN1CCN(Cc2ccc(NC(=O)c3ccc(C)c(NC(=O)c4cncc(-c5cccs5)c4)c3)cc2C(F)(F)F)CC1  Vz/F (C57BL/6 mouse, plasma; intraperitoneal, 15 mg/kg, single dose): 29.8 L/kg
C[C@H]1O[C@@H](O[C@H]2[C@@H](O)C[C@H](O[C@H]3[C@@H](O)C[C@H](O[C@H]4CC[C@@]5(C)[C@H](CC[C@@H]6[C@@H]5C[C@@H](O)[C@]5(C)[C@@H](C7=CC(=O)OC7)CC[C@]65O)C4)O[C@@H]3C)O[C@@H]2C)C[C@H](O)[C@@H]1O  subjects with adverse event (measured: arthropod bite; healthy men; oral, dose not given, 8 days, treatment-emergent, crossover trial): 0%
C[C@H]1CN(c2n[nH]c3nc(N[C@H]4CC[C@H](NS(=O)(=O)CCC(F)(F)F)CC4)ncc23)CCO1  plasma glucose concentration (male Han Wistar rat; oral, 1000 mg/kg/day, 7 days; reference: vehicle): 1.44 fold
CC[C@@H]([C@H](C)O)n1ncn(-c2ccc(N3CCN(c4ccc(OC[C@@H]5CO[C@@](Cn6cncn6)(c6ccc(F)cc6F)C5)cc4)CC3)cc2)c1=O  stability relative error (rat plasma; 2 ng/mL, three freeze-thaw cycles; reference: nominal concentration): -11.3%
C[C@@H](Nc1cc(F)cc(F)c1)c1cc(C(=O)N(C)C)cc2c(=O)cc(N3CCOCC3)oc12  AUC(0-12 h) (measured: M1 metabolite; human; oral, 240 mg, single dose day 1, 2:5 BID regimen): 3370 ng·h/mL
C=CC(=O)N1CC2CC(n3nc(-c4ccc(C(=O)Nc5ccccn5)cc4)c4c(N)ncnc43)CC2C1 (stereo not shown)  AUC(0-last) (SCID mice, plasma; oral, 15 mg/kg twice daily): 13500 ng·h/mL
Cc1cc(-c2nccc3c2ccn3CC(=O)Nc2ccc(-c3cnccn3)cn2)ccn1  subjects with skin abrasion TEAEs (human; MAD part, 5 mg once daily): 0%
Cc1cc(Nc2ccc(S(F)(F)(F)(F)F)cc2)n2nc(C(C)(F)F)nc2n1  adverse event Nausea (Plasmodium vivax malaria patients; oral, 400 mg): 0%
C[C@@H]1O[C@@H](O[C@H]2[C@H](Oc3cc(O)c4c(c3)O[C@H](c3ccc(O)cc3)CC4=O)O[C@H](CO)[C@@H](O)[C@@H]2O)[C@H](O)[C@H](O)[C@H]1O  Papp (PBS receiver; 50 mg/mL, 240 min, pH 6.8): 0.767 ± 0.6 ×10⁻⁶ cm/s
CC(C(=O)NCC(=O)NCC(CNC(=O)CNC(=O)C(C)N1CCN(CC(=O)[O-])CCN(CC(=O)[O-])CCN(CC(=O)[O-])CC1)(CNC(=O)CNC(=O)C(C)N1CCN(CC(=O)[O-])CCN(CC(=O)[O-])CCN(CC(=O)[O-])CC1)CNC(=O)CNC(=O)C(C)N1CCN(CC(=O)[O-])CCN(CC(=O)[O-])CCN(CC(=O)[O-])CC1)N1CCN(CC(=O)[O-])CCN(CC(=O)[O-])CCN(CC(=O)[O-])CC1.[Gd+3].[Gd+3].[Gd+3].[Gd+3] (stereo not shown)  lanthanide tissue concentration (cynomolgus monkey, muscle; dose not given, day 58, PK group): 0.057 ± 0.078 nmol/g
CNC(=O)c1ccc(-c2cnc3ncc(Cc4ccc5ncccc5c4)n3n2)cc1F  patients with adverse event (measured: Constipation, all grades; cancer patients; oral, 600 mg twice daily, expansion cohort, any causality): 18%
Cc1cc(-c2nnc(N)nc2-c2ccc(F)cc2)cc(Cl)n1  patients with immune-mediated AE (measured: rash; IO-naive other solid tumour patients; oral, 100 mg once daily, treatment-related, grade 2): 0%
Cc1c(Br)cc(NC(=O)CS(=O)(=O)O)cc1Br  unbound C0 (CD-1 mice, whole blood; intravenous, 2 mg/kg): < 0.085 µM
Cc1ccc(Sc2ccccc2N2CCNCC2)c(C)c1  vomiting incidence (healthy adult men; oral, 5 mg single dose, treatment-emergent adverse events): 0%
COc1nc(-c2cc(C)c(N[C@@H](C)c3cc(F)cc(F)c3)nn2)ccc1-n1cnc(C)c1  AUC(0-t) (cynomolgus monkey, male, plasma; oral, 2 mg/kg): 1620 ng·h/mL
CC(C)n1c(/C=C/C(O)CC(O)CC(=O)O)c(-c2ccc(F)cc2)c2ccccc21 (stereo not shown)  AUC(0-12 h) (human; oral, 20 mg, alone, control phase): 242 ± 83 ng·h/mL
CC(C)(C)NCC(O)c1cc(O)cc(O)c1 (stereo not shown)  pKa (basic): 9.7
Cn1cncc1[C@@](N)(c1ccc(Cl)cc1)c1ccc2c(c1)c(-c1cccc(Cl)c1)cc(=O)n2C  AUC0-inf ratio (human, plasma; 300 mg/m^2/dose, second cohort, mean; reference: AUC0-inf at 200 mg/m^2/dose): 1.4 fold
COc1cc2c3c(n(CCCN4CCOCC4)c(=O)c2cc1OC)-c1cc2c(cc1C3=O)OCO2  CL (beagle dog, female, plasma; intravenous infusion, 50 mg/m^2, 1 h infusion, vehicle 2): 47.2 ± 12 L/h/m²
COc1ncc(-c2nc3c(n2C(C)C)[C@H](c2ccc(Cl)cc2)N(c2cc(Cl)cn(C)c2=O)C3=O)c(OC)n1  median Tmax (human patients, plasma; oral, 1 mg, cycle 1 day 1, low-dose): 8 h
CC(C)[N+](C)(CCOC(=O)C1c2ccccc2Oc2ccccc21)C(C)C  remaining compound (human, both sexes, whole blood; 5 µM, 30 min): 58.8%
CC(=O)Nc1ccc(S(=O)(=O)Nc2c(C)nn(-c3ccccc3)c2C)cc1  pKa: 8.56
CCOc1c([C@H](C)n2nc(C)c3c(N)ncnc32)cc(Cl)c(F)c1[C@@H]1CNC(=O)C1  ECG observations (measured: QTcF change above 60 ms; previously treated B-cell malignancy; oral, 15 mg once daily, overall population; reference: baseline): 0%
C[C@@]1(c2cc(NC(=O)c3ccc(C#N)cn3)ccc2F)C=CSC(N)=N1  dose-normalised AUC(0-last) (elderly humans, both sexes, plasma; oral, 3 mg single dose): 77.1 ng·h/mL
Cc1c(-c2ccc(N3CCc4cccc(C(=O)Nc5nc6ccccc6s5)c4C3)nc2C(=O)O)cnn1CC12CC3(C)CC(C)(C1)CC(OCCNCC[C@H](O)CO)(C3)C2  plasma concentration (anaesthetized male beagle dog; iv infusion, 0.01 mg/kg/min, 120 min): < 2 ng/mL
NCCONC(=O)[C@@H]1CC[C@@H]2CN1C(=O)N2OS(=O)(=O)O  upper respiratory tract infection incidence (phase I clinical trial; healthy Chinese male humans; intravenous, 1 g): 25%
CC1(C)S[C@@H]2[C@H](NC(=O)[C@H](N)c3ccc(O)cc3)C(=O)N2[C@H]1C(=O)O  mean blood pressure (male Hartley guinea pigs, anaesthetized; intravenous, 10 mg/kg over 10 min, after infusion): 37 ± 0.2 mmHg
O=C(/C=C/CCc1ccc(O)cc1)/C=C/c1ccc(O)cc1  body weight (nude mouse MCF7 xenograft; 10 mg/kg, day 0): 19.4 ± 1.67 g
CN1C(=O)[C@@H](NC(=O)c2nnc(Cc3ccccc3)[nH]2)COc2cccnc21  nasopharyngitis incidence (phase I multiple ascending dose; human, male and female; oral, 600 mg, 14 days): 0%
O=C(Nc1cnccc1Cl)N1CCN(Cc2ccc3c(c2)OC(F)(F)O3)CC1  adverse event incidence (measured: Haematoma; human healthy young men; 75 mg, multiple dose): 0%
CC(C)NC(=O)COc1cccc(-c2nc(Nc3ccc4[nH]ncc4c3)c3ccccc3n2)c1  AUC(0-last) (human male, plasma; oral, 200 mg once daily, day 13, fed, geometric mean, together with: rosuvastatin): 13600 ng·h/mL
NC(=O)c1ncn([C@@H]2O[C@H](CO)[C@@H](O)[C@H]2O)c1O  pKa (basic): < 2
CC1(C)C=C(CNc2ccc3c(c2)Cc2cc(Br)ccc2-3)C(C)(C)N1[O]  brain/plasma ratio (mouse; intraperitoneal, 10 mg/kg, 1 h): 0.5
O=C(N[C@H](Cc1c[nH]c2ccccc12)C(=O)Nc1ccncc1)c1ccc(N2CCN(c3ccc(F)cc3F)CC2)cc1F  concentration (Swiss Webster mouse, female, liver; oral, 50 mg/kg, 8 h, 20% HPβCD vehicle): 47.7 µM
CN(C(=O)n1cnc(-c2ccc[n+]([O-])c2)c1)[C@H]1CC[C@H](O)CC1  AUC(0-t) (cynomolgus monkeys, plasma; oral, 1.0 mg/kg): 67.3 ng·h/mL
CCN1/C(=C/C(C)=O)Sc2ccc(F)cc21  QRS duration (cynomolgus monkey; oral, 100 mg/kg, 1 h post-dose): 36 ± 2 ms
COc1ccc2c(c1)CN(C(=O)CCN1CCC(Cc3ccccc3)CC1)CC[S@@+]2[O-]  QT interval (telemetry; conscious male beagle dogs; intravenous, 2 mg/kg, 2 h): 222 ± 13 ms
CCc1cc(C(=O)NC)c2nccc(N3CCc4c(cc(Cn5ccnc5)cc4-c4cn(C)nc4C(F)(F)F)C3=O)c2c1  serum CREA level (Sprague Dawley rats; oral, 100 mg/kg twice daily, 7 days): 46.6 ± 1.7 µmol/L
CN[C@@H](C)C(=O)N[C@H]1CN(S(=O)(=O)c2cccc(S(=O)(=O)N3CC[C@H]4CC[C@@H](C(=O)NC(c5ccccc5)c5ccccc5)N4C(=O)[C@@H](NC(=O)[C@H](C)NC)C3)c2)CC[C@H]2CC[C@@H](C(=O)NC(c3ccccc3)c3ccccc3)N2C1=O  AUC(0-t) (LC-MS/MS; human, advanced solid tumours, plasma; intravenous, 0.3 mg weekly, day 15): 10.3 ± 5.97 ng·h/mL
C[C@H](CS)C(=O)N1CCC[C@H]1C(=O)O  mean blood pressure (male Hartley guinea pigs, anaesthetized; intravenous, 3 mg/kg over 10 min, after infusion): 25 ± 0.1 mmHg
Cc1ccc([C@@H]2O[C@H](CO)[C@@H](O)[C@H](O)[C@H]2O)cc1Cc1ccc(-c2ccc(F)cc2)s1  urinary phosphate excretion change (measured: inorganic phosphorus; Japanese type 2 diabetes patients; 200 mg, day 3, 24 h urine collection; reference: baseline): 103 mg
CCO[C@H]1CCN(Cc2c(OC)cc(C)c3[nH]ccc23)[C@H](c2ccc(C(=O)O)cc2)C1  total Tmax (human moderate hepatic impairment, plasma; oral, 200 mg single dose, median): 1.5 h
O=C(Nc1nc2cccc(-c3ccc(CN4CCS(=O)(=O)CC4)cc3)n2n1)C1CC1  treatment-emergent adverse events (measured: dyspepsia; human rheumatoid arthritis patients; oral, 150 mg once daily, 4 weeks, regardless of relatedness): 0%
CN1CCN(c2cccc3c2CCN(C(=O)/C=C/c2c(-n4cnnn4)ccc(Cl)c2F)[C@@H]3C(=O)Nc2ccc(C(=O)O)cc2)C(=O)C1  subjects with treatment-related adverse event (healthy human subjects; intravenous infusion, 1.5 mg/h, 2 h): 16.7%
COc1c(N2C[C@@H]3CCCN[C@@H]3C2)c(F)cc2c(=O)c(C(=O)O)cn(C3CC3)c12  mean blood pressure (male Hartley guinea pigs, anaesthetized; intravenous, 1 mg/kg over 10 min, after infusion): 34 ± 0.1 mmHg
C=CCN1CC(=O)N2[C@@H](Cc3ccc(O)cc3F)C(=O)N(Cc3cccc(N4CC(N5CCN(CC)CC5)C4)n3)C[C@@H]2N1C(=O)NCc1ccccc1  treatment-related adverse events (measured: Nausea; advanced solid tumour patients; all doses, expansion part, grade ≥3): 0%
Cc1cc(Nc2cc3ncccc3c(N[C@@H]3C[C@H]4CC[C@@H](C3)N4CCC#N)n2)n[nH]1  pruritus incidence (healthy human subjects; oral, 100 mg, 14 days, multiple ascending dose): 0%
N#Cc1ccc2c(c1)[C@H]1CCCN(C(=O)c3ccc4[nH]cnc4c3)[C@H]1C2  DHEA-S level (human, male; 240 mg, day 7): 9 µmol/L
CCCCCN1C[C@H](O)[C@@H](O)[C@H](O)[C@@H]1CO  brain/plasma ratio (Hexb-/- mouse; 30 mg/kg/day): 0.15
Cc1ccc2cccc(C(=O)O)c2c1  maximum haemolysis (sheep erythrocytes; 1 h, pH 7.5): 2.62%
Cn1c(C(F)(F)F)cc(=O)n(-c2cc(Oc3cccnc3OCC(=O)O)c(Cl)cc2F)c1=O  Tmax (beagle dog, female, plasma; oral capsule, 300 mg/kg/day epyrifenacil, week 13, 90-day study): 3.5 h
CN[C@@H]1COc2c(S(=O)(=O)NC(=O)Nc3c4c(cc5c3CCC5)CCC4)cnn2C1  ALT (human, serum; oral, 900 mg twice daily, day 9, together with: midazolam): 89 U/L
COc1cc2[nH]c(C)c(-c3ccccc3)c(=O)c2cc1Cl  Papp (PAMPA; pH 7.4): 48 ×10⁻⁶ cm/s

For quick reference, copied from above:
C[C@@H]1O[C@@H](O[C@H]2[C@H](Oc3cc(O)c4c(c3)O[C@H](c3ccc(O)cc3)CC4=O)O[C@H](CO)[C@@H](O)[C@@H]2O)[C@H](O)[C@H](O)[C@H]1O  Papp (PBS receiver; 50 mg/mL, 240 min, pH 6.8): 0.767 ± 0.6 ×10⁻⁶ cm/s
COc1ccc2c(c1)CN(C(=O)CCN1CCC(Cc3ccccc3)CC1)CC[S@@+]2[O-]  QT interval (telemetry; conscious male beagle dogs; intravenous, 2 mg/kg, 2 h): 222 ± 13 ms
C[C@H]1CN(c2n[nH]c3nc(N[C@H]4CC[C@H](NS(=O)(=O)CCC(F)(F)F)CC4)ncc23)CCO1  plasma glucose concentration (male Han Wistar rat; oral, 1000 mg/kg/day, 7 days; reference: vehicle): 1.44 fold
C[C@H](CS)C(=O)N1CCC[C@H]1C(=O)O  mean blood pressure (male Hartley guinea pigs, anaesthetized; intravenous, 3 mg/kg over 10 min, after infusion): 25 ± 0.1 mmHg
CC(C)(C)NCC(O)c1cc(O)cc(O)c1 (stereo not shown)  pKa (basic): 9.7
N#Cc1ccc2c(c1)[C@H]1CCCN(C(=O)c3ccc4[nH]cnc4c3)[C@H]1C2  DHEA-S level (human, male; 240 mg, day 7): 9 µmol/L
